Experimental data pooled from the literature.
Each line is one published result; not all experiments were run side by side. Several values in a cell are separate wells, animals, samples, runs or records.
Target: MAP kinase-activated protein kinase 5 (MAPKAPK5, Homo sapiens, UniProt Q8IW41)

Structure (SMILES) | test | conditions | scale | quantity | result
C=CC(=O)Nc1cccc(-c2cnc3[nH]cc(C(=O)NC(C)(C)C)c3n2)c1 | enzyme activity, inhibitor | 0.1 µM | – | inhibition | 5%
CNC(=O)C[C@H](Cc1ccc(C#N)cc1)NC(=O)c1cc(-c2ccc(CN[C@H](C)c3ccc(C)cc3)o2)ccc1Cl | enzyme activity, inhibitor | 1 µM | – | activity vs control | 84%
O=C(Nc1ccc(Oc2ncnc3[nH]cc(-c4ccccc4)c23)c(F)c1)c1c2n(n(-c3cc(F)ccc3F)c1=O)CCCC2 | enzyme activity, inhibitor | 0.5 µM | – | inhibition | 26%
Cc1cnc2nc1Nc1cccc(c1)COC/C=C/COCc1cc(ccc1OCCN1CCOCC1)N2 | binding | 0.1 µM | – | remaining binding | 89%
Cc1cccc(O[C@H]2CCC[C@@H](C(C)CNCc3ccncc3)C2)c1 (relative stereo) | enzyme activity, inhibitor | 1 µM | – | inhibition | 6%
Cc1cccc(-c2ccc3nc(NC(=O)C4CCOCC4)nn3c2)c1 | enzyme activity, Dundee kinase panel | 10 µM | – | remaining activity | 60%
O=C(O)CCC(=O)c1cccc(NS(=O)(=O)c2c[nH]c3ncccc23)c1 | kinase activity, radiometric | 10 µM | – | remaining activity | 104%
Nc1ncc2c(n1)-c1c([nH]c3ccc(C4=CCOCC4)cc13)CCC2 | binding, competition with immobilised ligand | 1 µM | – | remaining binding | 98%
CC(C)=CC1OC(C)(C)C2C=C3C(=O)C(Cl)=CC(O)C3C3C(O)C4OC4C(=O)C132 (stereo not drawn) | cell-free assay, competition with immobilised ligand | 10 µM | – | remaining binding | 65%
COc1c(Cl)cccc1Nc1c(-c2ccncc2C#C[C@@]2(C)CCCN2C(=O)/C=C/CN(C)C)[nH]c2c1C(=O)NCC2 | binding, competition with immobilised ligand | 3 µM | – | remaining binding | 77%
COCC12C(=O)NC3C4(C(OC)CC1O)C1CC5(O)C(OC)C(O)C(OC(C)=O)(C1C5OC(=O)c1ccccc1)C3(O)C(OC)C24 (stereo not drawn) | kinase activity, inhibitor, ProQinase kinase profiling | 25 µM | baseline: control | remaining activity | 99% and 103%
Nc1ncc(-c2cc(-c3cnn(CC(F)(F)F)c3)ncc2F)nc1C(=O)NC1CNCC(F)C1 (stereo not drawn) | enzyme activity | 1 µM | baseline: DMSO control | remaining activity | 107%

For quick reference, copied from above:
Structure (SMILES) | test | conditions | scale | quantity | result
Cc1cnc2nc1Nc1cccc(c1)COC/C=C/COCc1cc(ccc1OCCN1CCOCC1)N2 | binding | 0.1 µM | – | remaining binding | 89%
